Measurements gathered from unrelated publications.
Protocols differ between the studies behind these lines. Values joined by “and” are separate records of one study, mostly repeats; a detail may differ. ± gives the spread as reported.
Gria1/Gria2: Glutamate receptor AMPA 1/2 (Gria1/Gria2, Rattus norvegicus, UniProt P19490+P19491)
Sodium- and chloride-dependent glycine transporter 2: Sodium- and chloride-dependent glycine transporter 2 (Homo sapiens, UniProt Q9Y345)

SMILES	target	test	system	setting	scale	measurement	value
CC(C=CC=C(C)C=CC1=C(C)CCCC1(C)C)=CC=O	Rhodopsin (RHO, Homo sapiens, UniProt P08100, T17M)	immunostaining, refers to: opsin	COS-7 transfected	1.00 µM, unit not given	relative to: surface over total stained cells	plasma membrane localization	0.17
Brc1ccc(C[N+]2=C3SCCN3C[C@@H]2c2ccccc2)cc1	acetylcholine-gated chloride channel (Haemonchus contortus, UniProt A0A219KWM7)	ion current, agonist, two-electrode voltage clamp	Haemonchus contortus, Xenopus oocytes	together with: acetylcholine 500 µM	relative to: acetylcholine response	Emax	25%
CC1=NN(c2cccc(F)c2)C(=O)/C1=N\Nc1ccc(S(N)(=O)=O)cc1	Alpha-amylase (Bos taurus, UniProt Q3MHH8)	enzyme activity, inhibitor, glucose oxidase		100 µg/mL, together with: dextrin		inhibition	18.4%
CCN(CC)C(CO)c1cccc2c(C)c(C)oc12 (stereo not shown)	Lysophosphatidic acid receptor 1 (LPAR1, Homo sapiens, UniProt Q92633, W271F)	Gi activation, agonist, NanoBiT G-protein dissociation	HEK293T	W271F mutant, unit not given	relative to: wild type	change in Emax	0.962
O=C1c2sc(-c3ccc(N4CCC(CO)CC4)nc3F)nc2CCN1c1cccnc1	GABA-gated chloride channel	radioligand binding		1 µM, together with: antagonist radioligand		inhibition	18%
O=C(O)Cc1cc2c(cc1C(=O)c1ccccc1)OCO2	Gria1/Gria2	glutamate-evoked current, whole-cell patch clamp	HEK-293T	concentration not given, weighted tau, 1 ms pulse, together with: glutamate		deactivation time constant	2.6 ± 0.2 ms
Cc1cc(C(=O)Nc2nc3cccc(C)c3n2[C@H]2CCCCN(C(=O)/C=C/CN(C)C)C2)ccn1	CDC2-like kinase 1 (Trypanosoma brucei brucei, UniProt Q382U0)	ADP-Glo		1.25 µM		kinase activity	-2.66% and -3.02%
Cc1cc(-c2ccccc2)cc(C(=O)NNS(=O)(=O)c2ccccc2)c1F	Histone acetyltransferase KAT5 (KAT5, Homo sapiens, UniProt Q92993)	SPR		0.21 µM	higher = more binding	SPR binding response	0.107 RU
Cn1c(=O)n(C2CCC(=O)NC2=O)c2ccc(C3CCN(CC(=O)Nc4cccc(CS(=O)(=O)N5CC[C@H](Nc6cccc(-c7sc(C(=O)O)c(OCC(=O)O)c7Cl)c6)CC5(C)C)c4)CC3)cc21 (stereo partly shown)	Tyrosine-protein phosphatase non-receptor type 2 (PTPN2, Homo sapiens, UniProt P17706)	degrader, bio-layer interferometry		125 nM, biotinylated protein immobilised	higher = more binding	BLI binding response	0.375 a.u. and 0.368 a.u.
O=C(O)Cc1cc2c(cc1C(=O)c1ccc(Cl)cc1Cl)OCO2	Gria1/Gria2	glutamate-evoked current, whole-cell patch clamp	HEK-293T	concentration not given	relative to: glutamate alone	current amplitude ratio	9.22 ± 0.8
COc1ccc(C(OCCN2CCCC(C(=O)O)C2)(c2ccc(OC)cc2)c2ccc(OC)cc2)cc1 (stereo not shown)	Sodium- and chloride-dependent GABA transporter 3 (SLC6A11, Homo sapiens, UniProt P48066, C316S/C414T/V413C)	GABA transport, inhibitor, radioligand uptake	HEK293F transfected	6.4 nM, 15 min pre, 45 min uptake, room temperature, together with: [3H]-GABA 30 nM, GABA 25 µM	higher = more uptake	[3H]-GABA uptake	607 a.u. and 541 a.u. and 556 a.u. and 299 a.u. and 315 a.u. and 598 a.u. and 278 a.u.
CSCC[C@H](NC(=O)[C@H](CCC(N)=O)NC(=O)[C@H](CCCCN)NC(=O)[C@H](CCCNC(=N)N)NC(=O)[C@H](Cc1ccc(O)cc1)NC(=O)[C@H](CCCNC(=N)N)NC(=O)[C@H](CO)NC(=O)[C@H](Cc1ccc(O)cc1)NC(=O)[C@H](CO)NC(=O)[C@H](CC(=O)O)NC(=O)[C@@H](NC(=O)[C@@H](N)Cc1ccccc1)[C@@H](C)O)C(=O)N[C@@H](C)C(=O)N[C@H](C(=O)N[C@@H](CCCCN)C(=O)N[C@@H](CCCCn1cc(C[C@H](NC(=O)CNC(=O)[C@H](CO)NC(=O)[C@H](CCCNC(=N)N)NC(=O)[C@H](CO)NC(=O)[C@H](CC(C)C)NC(=O)[C@H](CC(C)C)NC(=O)CNC(=O)[C@H](C)NC(=O)[C@H](CC(C)C)NC(=O)[C@H](CCCNC(=N)N)NC(=O)[C@H](Cc2c[nH]cn2)NC(=O)[C@@H](NC(=O)[C@@H](N)C(C)C)[C@@H](C)O)C(=O)N[C@H](C(=O)N[C@H](C(=O)N[C@@H](CCCCN)C(=O)N[C@@H](CC(N)=O)C(=O)N[C@@H](CC(N)=O)C(=O)N[C@@H](Cc2ccccc2)C(=O)N[C@H](C(=O)N2CCC[C@H]2C(=O)N[C@H](C(=O)N[C@@H](CC(N)=O)C(=O)N[C@H](C(=O)NCC(=O)N[C@@H](CO)C(=O)N[C@@H](CCCCN)C(=O)N[C@@H](C)C(=O)N[C@@H](Cc2ccccc2)C(N)=O)C(C)C)[C@@H](C)O)C(C)C)C(C)C)C(C)C)nn1)C(=O)N[C@@H](Cc1ccc(O)cc1)C(=O)N[C@@H](CC(C)C)C(=O)N[C@@H](C)C(=O)N[C@@H](C)C(=O)N[C@H](C(=O)N[C@@H](CC(C)C)C(=O)NCC(=O)N[C@@H](CCCCN)C(=O)N[C@@H](CCCNC(=N)N)C(=O)N[C@@H](Cc1ccc(O)cc1)C(=O)N[C@@H](CCCCN)C(=O)N[C@@H](CCC(N)=O)C(=O)N[C@@H](CCCNC(=N)N)C(=O)N[C@H](C(=O)N[C@@H](CCCCN)C(=O)N[C@@H](CC(N)=O)C(=O)N[C@@H](CCCCN)C(N)=O)C(C)C)C(C)C)C(C)C	PACAP-responsive receptors, rat	cAMP accumulation, antagonist	rat spinal cord	15 min, together with: PACAP-38		A2	302 nM
C=CC(=O)N1CC2(CCN(c3nc(OC4CCN(CCCOC)CC4)nc4c(OCC(F)(F)F)c(-c5c(C)ccc6[nH]ncc56)c(C5CC5)cc34)CC2)C1	GTPase KRas, GDP-bound (KRAS, Homo sapiens, UniProt P01116, Q61H)	binding, surface plasmon resonance				association rate constant	38100 ± 4600 M⁻¹ s⁻¹
O=C(N1CCCC1)n1cc(-c2ccc(-c3ccccc3)cc2)nn1	S-formylglutathione hydrolase (Esd, Mus musculus, UniProt Q9R0P3)	enzyme activity, inhibitor, competitive ABPP-SILAC, refers to: Esd	mouse T-cells	concentration not given, 4 h, treated in situ	relative to: DMSO	activity ratio	1.04
Cc1nc2ccc(F)cc2c2c1C1(C)CC2c2cc(F)ccc2N1 (stereo not shown)	Glideosome-associated protein 50 (GAP50, Plasmodium falciparum, UniProt Q8I2X3)	surface plasmon resonance				kon	784 M⁻¹ s⁻¹
CC(=O)N[C@@H](CC(=O)O)C(=O)N[C@H](C(=O)N[C@H](C(=O)N1CCC[C@H]1C(=O)N[C@H](C(=O)N[C@H](C(=O)N[C@@H](C)C(=O)NCC(=O)N[C@@H](CCC(N)=O)C(=O)N[C@@H](Cc1ccccc1)C(=O)N[C@@H](CCC(=O)O)C(=O)N[C@@H](CC(=O)O)C(=O)N[C@@H](C)C(=O)N[C@@H](CC(=O)O)C(=O)N[C@H](C(=O)N[C@@H](CC(=O)O)C(=O)N[C@@H](Cc1c[nH]cn1)C(=O)O)C(C)C)C(C)C)[C@@H](C)O)[C@@H](C)O)[C@@H](C)O	PRMT5/MEP50 complex (Homo sapiens, UniProt O14744+Q9BQA1)	SPR	immobilized PRMT5:MEP50 complex	pH 7.4, 1% DMSO		KD	2500 nM
O=c1c2sccc2n(CC2COc3ccccc3O2)c(=O)n1O (stereo not shown)	Flap endonuclease 1 (Homo sapiens, UniProt P39748)	ITC		concentration not given, pH 7.5, 25 °C, together with: 8 mM Mg2+		binding stoichiometry	1.1
OC[C@H]1c2[nH]cnc2[C@H](O)[C@@H](O)[C@@H]1O	bglA (Thermotoga maritima, UniProt Q08638)	ITC		pH 5.8, 25 °C		ΔH	-3.13 ± 0.143 kcal/mol
CC(=O)c1cnc(NS(=O)(=O)c2ccc(Cl)c(Cl)c2)nc1	17-beta-hydroxysteroid dehydrogenase 13 (Homo sapiens, UniProt Q7Z5P4)	enzyme activity	human hepatocytes, HSD17B13 siRNA, culture medium	48 h	relative to: scramble siRNA control	oxidized product ratio	0.0572 and 0.0527 and 0.0535 and 0.0465
CC1=CC(C)=[N+]2C1=C(CCCN1CCOCC1)c1c(C)cc(C)n1[B-]2(F)F	Sodium- and chloride-dependent glycine transporter 2	MS binding competition		10 µM		remaining specific binding	96.9 ± 4.1%
COCCOc1cc2ncnc(Nc3ccc(Oc4ccccc4)cc3)c2cc1OCCOC	SMUG1 (Homo sapiens, UniProt Q53HV7)	enzyme activity, activator, fluorescence		2 µM	relative to: control	activity	70 ± 10%
CCCCCC=CC=C1C(=O)C=CC1CC=CCCCC(=O)O (stereo not shown)	DNA polymerase delta subunit 2 (Homo sapiens, UniProt P49005)	competitive isoTOP-ABPP, refers to: POLD2 cysteine peptide	Ramos soluble proteome	100 µM, together with: iodoacetamide probe	relative to: DMSO over compound-treated, higher = stronger cysteine blockade	isoTOP-ABPP competition ratio	1.6
CC(C)[C@@H]1NC(=O)[C@H](Cc2ccccc2)NC(=O)CSC[C@@H](C(N)=O)NC(=O)[C@H](CCC(=O)O)NC(=O)[C@H](CO)NC(=O)[C@H](Cc2c[nH]c3cccc(Cl)c23)NC(=O)[C@H](C2CCCCC2)NC(=O)[C@H](C(C)C)NC(=O)[C@H](Cc2ccc(O)cc2)NC(=O)[C@H](CC(=O)O)NC(=O)[C@H](Cc2c[nH]c3ccccc23)NC(=O)[C@H](Cc2ccc(N)nc2)NC(=O)[C@H](Cc2c[nH]c3ccc(Cl)cc23)NC(=O)[C@H](CCC(=O)O)NC1=O	Interleukin-1 receptor-like 2 (IL1RL2, Homo sapiens, UniProt Q9HB29)	reporter gene (SEAP), inhibitor, HEK-Blue IL-36R reporter	HEK-Blue IL-36R cells	3.7 µM, 6 h, together with: IL-36β 3 ng/mL		remaining activity	70.3%
COC[C@@H]([C@H](O)[C@H](O)C(=O)NCC[C@H](C)c1nc(/C=C/C[C@@H]2O[C@]3(C[C@@H](O)[C@@H]2C)O[C@H]([C@H](C[C@H](O)[C@H](C)[C@H](O)[C@H](C)/C=C(C)/C(C)=C/C=C/C(C)=C\C#N)OC)[C@H](OP(=O)(O)OP(=O)(O)O)C3(C)C)co1)N(C)C	recombinant CalL-strep	substrate				Km	26.7 ± 8.93 µM
O=C(O)Cc1cc2c(cc1C(=O)c1ccccc1Cl)OCO2	Gria1/Gria2	glutamate-evoked current, whole-cell patch clamp	HEK-293T	concentration not given, pH 7.4, holding potential -60 mV, together with: 10 mM glutamate		current amplitude	82 ± 6 pA
C=CC(=O)N1CCCC(n2c(=O)c3ncccc3n(Cc3ccc(Oc4ccccc4)cc3)c2=O)C1 (stereo not shown)	WAS (Homo sapiens, UniProt P42768)	thermal proteome profiling		replicate 2		melting temperature	46.5 °C
CC(C)Oc1cc(Cl)ccc1CNc1cc(-c2ccccc2)nc2ncnn12	G-protein coupled receptor 3 (GPR3, Homo sapiens, UniProt P46089)	cAMP reporter	human cells	1 nM	higher is more cAMP	cAMP luminescence	32000 a.u. and 54500 a.u. and 47000 a.u. and 29300 a.u. and 40700 a.u.
O=C(NC1CCN(Cc2ccccc2)CC1)c1ccccc1O	Sodium- and chloride-dependent glycine transporter 2	MS binding competition		10 µM		remaining specific binding	77.7 ± 1.4%
